Assay results from different studies.
Compare with care: the assays were run in different laboratories. Several values in a cell are separate wells, animals, samples, runs or records. ± marks the error that the study gave.

| SMILES | cell line | assay | conditions | scale | measurement | value |
| --- | --- | --- | --- | --- | --- | --- |
| COc1ccc(C2CC3=C(C(=O)O2)C(c2ccccc2Cl)C(C(=O)OC(C)(C)C)=C(C)N3)cc1OC (stereo not drawn) | J774.A1 | cytotoxicity |  |  | EC50 | > 20 µM |
| COc1cnc2cccc(N3CCc4c(cc(Cn5ccnc5C)cc4-c4cn(C)nc4C(F)(F)F)C3=O)c2c1 | HEC265 | cell growth | 120 h |  | EC50 | > 30 µM |
| CCCN1CCN(c2ccc3nc(-c4ccc5nc(-c6cc(OC)ccc6OC)[nH]c5c4)[nH]c3c2)CC1 | MDA-MB-435 | SRB | 10 µM, 48 h |  | growth percent | 106% |
| CCCCC[C@H](O)/C=C/[C@H]1C(=O)C[C@H](O)[C@@H]1C/C=C\CCCC(=O)O | HEK293-A2AR cells, SLCO2A1 knockout | HTRF cAMP | 500 nM |  | HTRF cAMP signal | 321 a.u. and 312 a.u. and 326 a.u. |
| Cc1cccc(-c2[nH]c(CNc3ccccc3F)nc2-c2ccc3ncnn3c2)n1 | MM1.S pomalidomide-resistant | XTT | 4 µM |  | viability | 18% and 13% |
| CC1(C)COc2ccc(F)cc2CN2c3nc4c(cnn4cc3OC[C@H]2C(F)F)C(=O)N1 | Aska-SS (ALK exon 2-17 deletion) | cell viability |  |  | Emax | 76.5% |
| CCn1cc(-c2cc(Cn3ccoc3=N)cc3c2CCN([C@@H](C)c2cc(OC)ccn2)C3=O)c(C(F)(F)F)n1 | MDA-MB-175-VII | cell growth, inhibitor | 120 h |  | EC50 | > 30 µM |
| Nc1cccc2c1CN(C1CCC(=O)NC1=O)C2=O (stereo not drawn) | BRD4-HiBiT cells | BRD4 degradation rescue, inhibitor | 24 h, added: dBET6 500 nM |  | EC50 | 2.13 µM |
| Cc1nn(-c2nc3c(F)cc(F)cc3s2)c(O)c1C(c1ccc(C(F)(F)F)cc1)c1c(C)nn(-c2nc3c(F)cc(F)cc3s2)c1O | RAW-ISG | TBK1 phosphorylation, western blot | 10 µM, added: poly(I:C) | reference: DMSO | phospho-TBK1/TBK1 ratio | 0.958 |
| COc1cc(C(=O)Nc2cc(OCCN3CCCC3)c3ccccc3n2)nc(C(=O)Nc2cc(OCCN3CCCC3)c3ccccc3n2)c1 | HT-1080 | cell viability, CellTiter-Glo | 72 h | reference: IC50 HT-1080 over WI-38 | selectivity ratio | 2.6 |
| O=P(O)(O)C(O)(Cn1ccnc1)P(=O)(O)O | hFOB 1.19 | AlamarBlue | 1.9 µM, 72 h | reference: control | viability | 100 ± 1% |
| CCOC(=O)C1=C(C)NC2=C(C(=O)OC(c3ccc(OC)c(OC)c3)C2)C1c1ccccc1OC (stereo not drawn) | J774.A1 | cytotoxicity |  |  | EC50 | > 20 µM |
| CC(C)NCC(O)c1ccc(O)c(O)c1 (stereo not drawn) | mouse ventricular cardiomyocytes |  | dose not given, 0.423 s |  | sarcomere length | 1.75 µm |
| CCOC(=O)CSc1nc(-c2ccc(Cl)cc2)c2c(NC(=O)c3ccccc3)nnc-2[nH]1 | MDA-MB-435 | SRB | 10 µM, NCI60 single-dose screen | reference: untreated | cell growth | 98.8% |
| Cn1cc(Nc2nccc(-c3ccc4c(c3)CN(C3COC3)CC[C@H]4NC(=O)c3cn(C(C)(C)C)nn3)n2)cn1 | human B cells |  | 100 nM, 64 h, stimulation-downregulated genes, added: CpG ODN2006 |  | number of downregulated genes | 0 |
| CC1=CC[C@H]2[C@@H]([C@@H]1CC[C@H]1[C@]3(C)CC[C@H](O)C(C)(C)O[C@H]3CC[C@]1(C)O)C(C)(C)CC[C@]2(C)O | KB-3-1 |  | 10 µM |  | intracellular [3H]-paclitaxel | no effect |
| CCOC(=O)C1=C(C)NC2=C(C(=O)OC(c3cccc(OC)c3)C2)C1c1ccccc1Cl (mixture of isomers) | J774.A1 | cytotoxicity |  |  | EC50 | > 20 µM |
| Cc1cnc(NC2CCOCC2)nc1-n1cnc(C(=O)NC(CN)c2cc(F)cc(Cl)c2)c1 (stereo not drawn) | MINO | flow cytometry | 1 µM, 24 h |  | G1 phase cells | 58.1% |
| Cn1cc(-n2cnc3c(NCc4nc5cc(Cl)c(Cl)cc5[nH]4)nc(N4CCOCC4)nc32)cn1 | MDA-MB-231 | qRT-PCR, refers to: FANCI | 50 nM, 6 h, unit not given | reference: untreated | mRNA level | 0.626 |
| C=C[C@@]1(C)CC(=O)[C@]2(O)[C@@]3(C)[C@@H](O)CCC(C)(C)[C@@H]3[C@H](O)[C@H](OC(C)=O)[C@@]2(C)O1 | MDA-MB-231 BAX/BAK siRNA knockdown | CellTiter-Glo | concentration not given | reference: normalised luminescence | viability | 34.2% and 40.8% |
| NCCCOc1cc(NC(=O)c2cc(OCCN)cc(C(=O)Nc3cc(OCCCN)c4ccccc4n3)n2)nc2ccccc12 | HT-1080 | cell viability, CellTiter-Glo | 72 h | reference: IC50 HT-1080 over WI-38 | selectivity ratio | 1.6 |
| N#C/C(=C\c1c[nH]nc1-c1ccc2ccccc2c1)C(=O)O | LX-2 | qPCR, refers to: ACTA2 | 10 µM, hepatic stellate cell activation, added: TGFβ | reference: untreated | mRNA level | decreased |
| C=CC(=O)N1CCC[C@@H](c2ccc(C(N)=O)c3[nH]ccc23)C1 | TMD8 | calcium flux, FLIPR | 4 h preincubation, added: anti-IgM |  | maximum inhibition | 18% |
| CCn1cc(-c2cc(Cn3ccnc3)cc3c2CCN([C@H](c2cc(OC)ccn2)C2CC2)C3=O)c(C(F)(F)F)n1 | KP3 | cell growth | 120 h |  | EC50 | > 30 µM |
| FC(F)(F)COCC(F)(F)F | MDA-MB-231 BAX/BAK siRNA knockdown | cell viability, CellTiter-Glo |  | direction not given | Z score | 1.73 |
| CCOC(=O)C1=C(c2ccccc2)NC2=C(C(=O)CC(c3ccc(OC)c(OC)c3)C2)C1c1ccccc1Cl (mixture of isomers) | J774.A1 | cytotoxicity |  |  | EC50 | > 20 µM |

| SMILES | cell line | assay | conditions | scale | measurement | value |
| --- | --- | --- | --- | --- | --- | --- |
| CCCCc1nc(Cl)c(CO)n1Cc1ccc(-c2ccccc2-c2nn[nH]n2)cc1 | human PBMC | RNA-seq, refers to: CD300LB mRNA | 10 µg/mL, 24 h | reference: untreated control | log2 fold change | -1.62 |
| CC(C)(C)c1nc(-c2cccc(NS(=O)(=O)c3c(F)cccc3F)c2F)c(-c2ccnc(N)n2)s1 | A2780 | annexin V/PI flow cytometry | concentration not given, 48 h | reference: control subtracted | late apoptotic cells | 30.1 ± 3.3% |
| Cn1cc(-c2ccc(-c3cncc(Cl)c3N3CCC4(CCNC4=O)CC3)cc2)cn1 | COLO 205 | gene expression, microarray, refers to: NRP1 mRNA | concentration not given, 2 h | reference: untreated cells | log2 fold change | 3.2 |
| CC/C(=N\NC(=O)NCc1cccc(O)c1)c1ccc(O)c(C)c1O | SK-OV-3 | Western blot, refers to: TAZ | 10 µM, 1 h, 3D gellan gum culture, unit not given | reference: β-actin | protein level | 0.91 ± 0.25 |
| CN(C)c1ncnc2c1ncn2[C@@H]1O[C@H](CO)[C@@H](O)[C@H]1O | mock-transfected cells | TGFα shedding, agonist | 100 µM | reference: unstimulated vehicle control | AP-TGFα release | 20.3% and 20.2% and 21.3% |
| C=Cc1c2[n-]c(c1C)/C=c1\[n-]/c(c(C)c1C=C)=C\c1[n-]c(c(CCC(=O)O)c1C)/C=c1\[n-]c(c(C)c1CCC(=O)O)=C2.[Sn+4] | SH-SY5Y | RNA-seq, refers to: FAM30A mRNA | 5 µM, 5 h | reference: untreated cells | fold change | 3.2 |
| Cc1cc(OCc2nnc(SC3CCCC3)n2-c2cccnc2)ccc1-c1ccc(S(C)(=O)=O)cc1 | BRD4-HiBiT cells | BRD4 degradation rescue, inhibitor | 8 h, added: dBET6 500 nM |  | EC50 | 21.9 µM |
| O=C(C[C@@H](C(F)F)n1ccc(F)n1)N1CCC(O)(Cn2cnc3c(cnn3-c3ccc(F)cc3)c2=O)CC1 | CHP-212 resistant | PI flow cytometry | 1 µM, 24 h |  | G1 phase cells | 75.6% |
| O=c1[nH]nc(OCCCc2ccc(Cl)cc2)c(NCc2cccnc2)c1Br | HEK-293T | RNA-seq GSEA, refers to: HALLMARK_PEROXISOME | concentration not given | direction not given | normalized enrichment score | 0.758 |
| [Cl][111In]([Cl])[Cl] | U2OS-53BP1 |  | concentration not given, 16 h |  | DNA-bound fraction | ≤ 0.01% |
| Cc1nc(NC(=O)N2CCC[C@H]2C(N)=O)sc1-c1ccnc(C(C)(C)C(F)(F)F)c1 | KYSE-510 | cell growth, CellTiter-Glo | 120 h |  | Hill coefficient GR curve | 1.15 |
| C[C@H](CCC(=O)NCCS(=O)(=O)O)[C@H]1CC[C@H]2[C@@H]3CC[C@@H]4C[C@H](O)CC[C@]4(C)[C@H]3CC[C@]12C | human ADPKD PLD cystic cholangiocytes | cell confluence | 20 µM, 24 h | reference: untreated | proliferation increase | 54% |
| C#C[C@@]1(O)[C@@H](CO)O[C@@H](n2ccc3c(N)ncnc32)[C@@H]1O | MDA-MB-435 | SRB | NCI-60 screen |  | TGI | 3.49 µM |
| Cc1nn(-c2nc3c(F)cc(F)cc3s2)c(O)c1C(c1ccccc1C(F)(F)F)c1c(C)nn(-c2nc3c(F)cc(F)cc3s2)c1O | THP1-Dual | IFN luciferase reporter | 80 µM, added: HT-DNA |  | inhibition | 101% |
| Cc1cc(Nc2ncc(Cl)c(Nc3ccccc3S(=O)(=O)C(C)C)n2)c(OC(C)C)cc1C1CCNCC1 | CLB-BAR | phosphoproteomics LC-MS/MS, refers to: LPIN1 phosphorylation | 200 nM, 60 min | reference: untreated | log2 fold change | -1.55 |
| Cc1nn(-c2nc3ccccc3[nH]2)c(O)c1C(c1ccccc1C(=O)O)c1c(C)nn(-c2nc3ccccc3[nH]2)c1O | THP1-Dual | IFN luciferase reporter | 20 µM, added: HT-DNA |  | inhibition | 37.5% and 33.5% and 40.6% |
| CCOC(=O)C1=C(C)NC2=C(C(=O)CC(c3ccc(OC)c(OC)c3)C2)C1c1ccccc1Cl (stereo not drawn) | J774.A1 | cytotoxicity |  |  | EC50 | > 20 µM |
| CCCCN1C[C@H](O)[C@@H](O)[C@@H](O)[C@H]1CO | sample G patient fibroblasts | Gb3 level lowering, LC-MS/MS, refers to: Gb3 d18:1/20:0 | 216 h |  | IC50 | 13.1 µM |
| COc1cc(/C=C/C(=O)N2CCC=CC2=O)cc(OC)c1OC | MDA-MB-468 | quantitative RT-PCR, refers to: HIF1A | 30 µM, 8 h | reference: untreated cells | mRNA level | 130 ± 4.5% |
| C[S+](C)[O-] | WA09 hESC-derived forebrain rosette tissues |  | 0.1 % v/v |  | single rosette emergence | 91.7 ± 8.94% |
| CC(C)=CCNc1ncnc2c1ncn2[C@@H]1O[C@H](CO)[C@@H](O)[C@H]1O | mock-transfected cells | TGFα shedding, agonist | 1 nM | reference: unstimulated vehicle control | AP-TGFα release | -0.92% and 0.58% and -0.27% |
| NS(=O)(=O)OC[C@@H]1C[C@@H](n2ccc3c(N[C@H]4CCc5ccccc54)ncnc32)C[C@@H]1O | BRD4-HiBiT cells | BRD4 degradation rescue, inhibitor | 24 h, added: dBET6 500 nM |  | EC50 | 0.0527 µM |
| O=C(/C=C/C=C/C=C/C1CCCCC1)NC1=C[C@@](O)(/C=C/C=C/C=C/C(=O)NC2=C(O)CCC2=O)[C@@H]2O[C@@H]2C1=O | SW837 | cell growth, CellTiter-Glo | 78 h |  | GI50 | 16.1 µM |
| COC[C@H](NC(=O)c1cnc(C)s1)C(=O)N[C@@H](COC)C(=O)N[C@@H](Cc1ccccc1)C(=O)[C@@]1(C)CO1 | BRD4-HiBiT cells | BRD4 degradation rescue, inhibitor | 24 h, added: dBET6 500 nM |  | EC50 | 0.0163 µM |
| O=C(CCc1cc(C(=O)c2ccc(OC3CCCC3)cc2O)ccc1OCc1ccc2c(O)noc2c1)NCCOCCOCCOCCOCCOCCOCCNc1cccc2c1C(=O)N(C1CCC(=O)NC1=O)C2=O (stereo not drawn) | FaDu cells | RT-qPCR, refers to: FOSL1 target genes SNAI2, BMI1 | concentration not given |  | mRNA level | inhibited |

Repeated from above:
| SMILES | cell line | assay | conditions | scale | measurement | value |
| --- | --- | --- | --- | --- | --- | --- |
| C[C@H](CCC(=O)NCCS(=O)(=O)O)[C@H]1CC[C@H]2[C@@H]3CC[C@@H]4C[C@H](O)CC[C@]4(C)[C@H]3CC[C@]12C | human ADPKD PLD cystic cholangiocytes | cell confluence | 20 µM, 24 h | reference: untreated | proliferation increase | 54% |
| C#C[C@@]1(O)[C@@H](CO)O[C@@H](n2ccc3c(N)ncnc32)[C@@H]1O | MDA-MB-435 | SRB | NCI-60 screen |  | TGI | 3.49 µM |
| Cc1nn(-c2nc3c(F)cc(F)cc3s2)c(O)c1C(c1ccccc1C(F)(F)F)c1c(C)nn(-c2nc3c(F)cc(F)cc3s2)c1O | THP1-Dual | IFN luciferase reporter | 80 µM, added: HT-DNA |  | inhibition | 101% |
| Cc1cc(Nc2ncc(Cl)c(Nc3ccccc3S(=O)(=O)C(C)C)n2)c(OC(C)C)cc1C1CCNCC1 | CLB-BAR | phosphoproteomics LC-MS/MS, refers to: LPIN1 phosphorylation | 200 nM, 60 min | reference: untreated | log2 fold change | -1.55 |
